Experimental data gathered from unrelated publications.
A part holds a random share of what one study measured.

Study 1 — technique: protein binding microarray; molecule type: double-stranded DNA, one strand shown; medium: in vitro; tested at: not given; relative to: not given; direction: higher = stronger binding
Target: Histone acetyltransferase KAT6A, both winged helices, GST fusion (KAT6A, Homo sapiens, UniProt Q92794, residues 1-181)
Setting: 8-mer, flanks averaged, mean of 2 arrays, mostly near background
Target sequence (chain): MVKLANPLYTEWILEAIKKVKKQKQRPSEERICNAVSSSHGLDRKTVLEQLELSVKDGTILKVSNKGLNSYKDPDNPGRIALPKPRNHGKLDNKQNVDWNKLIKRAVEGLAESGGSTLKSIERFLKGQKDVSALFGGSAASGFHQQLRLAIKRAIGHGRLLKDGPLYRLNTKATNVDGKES
For `CAGCGGCG`, the E-score was 0.299.
The E-score of `CCATAAGC` is reported as -0.0609.
`AAGTCGAA` gave an E-score of -0.145.
`GACCCCAA` gave an E-score of -0.122.
For `CTGCCTTA`, the E-score was -0.162.
The E-score of `AGTCGCTG` is reported as 0.0122.
With `CAACCTGC` the E-score was -0.0601.
The E-score of `CGAGAAGA` is reported as -0.0757.
The E-score of `ATGAGGTC` is reported as -0.163.
`GCCTTTCC` has an E-score of 0.146.
For `CAGGCCAG`, the E-score was -0.0807.
`ATATCTGG` has an E-score of -0.236.
For `GTGTTAAC`, the E-score was 0.14.
`AAATCCTA` has an E-score of -0.175.
For `ATGCCCGG`, the E-score was 0.251.
With `TGCCAGCA` the E-score was -0.139.
The E-score of `GACTCGAA` is reported as -0.0259.
`AGTGCCAG` gave an E-score of -0.136.
The E-score of `CCTGTATA` is reported as -0.0638.
The E-score of `GGGGGCAA` is reported as -0.145.
`CGAAACCA` has an E-score of 0.108.
With `GAGATGCA` the E-score was -0.111.

Study 2 — technique: RNA Bind-n-Seq; molecule type: RNA; medium: in vitro; tested at: 365 nM; relative to: no-protein control; direction: higher = stronger binding
Target: RNA binding protein fox-1 homolog 2, RRM domain, GST-SBP tag (RBFOX2, Homo sapiens, UniProt O43251-10, residues 100-194)
Setting: natural RNA segment, single round, ends assumed
Shared flanks, not repeated: GGGAGUUCUACAGUCCGACGAUC … UGGAAUUCUCGGGUGCCAA
Target sequence (chain): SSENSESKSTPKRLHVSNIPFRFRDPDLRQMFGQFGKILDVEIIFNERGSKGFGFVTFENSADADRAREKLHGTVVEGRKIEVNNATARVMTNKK
Under “RBNS enrichment (R)”, `UAAGCACUGGUAGUCUGGAGUACCUGGUACUGAGUAACUCUAUAAUUGUGUUUUGUGUUCACCAUAUACAGAUCAUUUCUCAUCUGUAGUGUGCCCCAAAUGCAGCUUCA` is recorded as 0.414.
Under “RBNS enrichment (R)”, `AUUUGCUCAAUAAAAGUGGCCUUCCCUUGCCCUCCACACUAGGUCAUGUACAGUCUACCGCACCCUAGUGACAGUGUGGGUGUAUUUCUCUCAAACUCCCAUGGGAUCUA` is recorded as 0.47.
Under “RBNS enrichment (R)”, `UUGUACUGUGGCCACGAUUUGUCCCCGUGAUGAUUCUUGGGUCUAGAUUGUGAGUUCUUCAAGGGCAGGCUCAUCUCCUGCACAUCUUUCUACUUCUCUACAGCAGCUGU` is recorded as 0.252.
`AAAAAAAACAAAAAGCAAAAAACAAAAACCUACCCUGUUCUGGUUUUUUUCCUCCCUUUAGUUCCACCCCCAACCCCCAUUCCCUGGUGUCCUUCUUAGAGAUGAAGAAA`: “RBNS enrichment (R)” 0.882.
For `UAGAUACAGGUACUUUGAAACCACUAACCCUUCUUUACACGGGGCACAUAGGCCAGUCCGAGUUCUUUCUUAACAAGAUGGCUGUUCUGGCCUGGCCAGCAGUCUGCAUG`, “RBNS enrichment (R)” read 0.708.
Under “RBNS enrichment (R)”, `AGCCACAAGGCGAAACGGCCAGAUUCUCACUCAAGGUCGUUCUCACUCCUUUUCCUGUCCCGUUUCCAGUCCCACUGAGCCAUUCACUUCUGCUGAACCAUUUUUCUUAG` is recorded as 0.379.
For `GAAGUGGCUCAACAGGAGGAGCCUGAGUUGUGGGGUCUAUGGAUGGCAACCAGCUGAUUCUGUACAGGGUACACUUGACUGUGGGUAUGCAGGUGGCAGCUGCAGCCCUC`, “RBNS enrichment (R)” read 1.36.
`AUCCUUUCCAGAAACAGAAAGAGCUCUUAACCUCUCUGAGCUCUUUCUGCAAUUCCUUUGGGCGAUUUCUGAAAGUUGCCACCCACGUACUCACAGAUCCACUGCCCGCC` — result for “RBNS enrichment (R)”: 0.408.

Study 3 — technique: protein-binding microarray; molecule type: double-stranded DNA, one strand shown; medium: in vitro; tested at: 2540 nM top; setting: 60-bp whole probe; with: salmon DNA 0.4 mg/ml; relative to: random background probes; direction: higher = stronger binding; shared flanks, not repeated: GCCTAGCAC … GTCTTGATTCGCTTGACGCTGCTG
Target: Interferon regulatory factor 3, full length, phosphomimetic (IRF3, Homo sapiens, UniProt Q14653, residues 1-427, S386D/S396D/S398D/S402D/T404D/S405D)
Target sequence (chain): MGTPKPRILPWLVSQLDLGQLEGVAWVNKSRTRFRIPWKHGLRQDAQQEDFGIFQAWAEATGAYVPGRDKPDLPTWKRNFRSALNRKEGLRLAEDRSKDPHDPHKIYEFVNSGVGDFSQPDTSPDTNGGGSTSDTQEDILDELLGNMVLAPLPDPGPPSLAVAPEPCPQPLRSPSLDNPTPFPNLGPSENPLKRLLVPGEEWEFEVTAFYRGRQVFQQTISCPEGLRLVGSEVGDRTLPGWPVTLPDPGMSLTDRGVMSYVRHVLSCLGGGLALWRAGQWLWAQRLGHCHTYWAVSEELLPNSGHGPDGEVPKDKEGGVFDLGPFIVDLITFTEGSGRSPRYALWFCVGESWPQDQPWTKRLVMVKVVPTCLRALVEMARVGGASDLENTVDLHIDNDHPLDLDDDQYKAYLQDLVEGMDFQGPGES
Under “fitted relative affinity”, `TCATATTAAATTTTCACACTGTGCTAG` is recorded as 1.19 z-score.
`TTAGGACTGGGCCTGGGTTAGTGCTAG` — result for “fitted relative affinity”: -1.16 z-score.
`GACGAACTGGGGTTTCTAGACGTGCTA`: “fitted relative affinity” -0.429 z-score.
For `TTAGCTATCGGGACTGGGTTAGTGCTA`, “fitted relative affinity” read -0.3 z-score.
For `GACGGTTCCGGGTTCGGGACGTGCTAG`, “fitted relative affinity” read 1.74 z-score.
Under “fitted relative affinity”, `TTAGGTATCCTACCGCTTTAGTGCTAG` is recorded as 1.58 z-score.
Under “fitted relative affinity”, `TTGGTTTTCCTTATTGCTTCGTGCTAG` is recorded as 4.19 z-score.
For `TCAGGTATCGACTTTCGGTTAGTGCTA`, “fitted relative affinity” read 2.25 z-score.
`TTAGAACTGCGACTGGATTAGTGCTAG`: “fitted relative affinity” -0.558 z-score.
`TCATTTATATGCTATGTAACTGTGCTA`: “fitted relative affinity” 1.2 z-score.
Under “fitted relative affinity”, `GACGGTTTCGGTTCCGGTACGTGCTAG` is recorded as 10.7 z-score.
`GACGGTCTCGGTATCGAGACGTGCTAG`: “fitted relative affinity” 1.47 z-score.
`GACAGACTGGGGTTTCGGGACGTGCTA`: “fitted relative affinity” 0.777 z-score.
For `GACGAACTGGGGTTTCGAGGCGTGCTA`, “fitted relative affinity” read 0.0592 z-score.
`GACGGTATCCTATTCCTGACGTGCTAG`: “fitted relative affinity” 4.64 z-score.
For `TCATTTAGAAATTTCTTACTGTGCTAG`, “fitted relative affinity” read 1.58 z-score.
Under “fitted relative affinity”, `GCTTCTCCTTGGAATAGATCGTGCTAG` is recorded as 0.662 z-score.
For `TTAAATTCCAGTTTCGATTAGTGCTAG`, “fitted relative affinity” read 5 z-score.
`TTTGGTTTCGACTTTCGGTTAGTGCTA`: “fitted relative affinity” 4.38 z-score.

Study 4 — technique: protein-binding microarray; molecule type: hairpin DNA; medium: in vitro; tested at: not given; relative to: not given; direction: higher = stronger binding
Target: Krueppel-like factor 3, full length (KLF3, Homo sapiens, UniProt P57682, residues 1-345)
Sequence of UniProt P57682 (whole entry, looked up): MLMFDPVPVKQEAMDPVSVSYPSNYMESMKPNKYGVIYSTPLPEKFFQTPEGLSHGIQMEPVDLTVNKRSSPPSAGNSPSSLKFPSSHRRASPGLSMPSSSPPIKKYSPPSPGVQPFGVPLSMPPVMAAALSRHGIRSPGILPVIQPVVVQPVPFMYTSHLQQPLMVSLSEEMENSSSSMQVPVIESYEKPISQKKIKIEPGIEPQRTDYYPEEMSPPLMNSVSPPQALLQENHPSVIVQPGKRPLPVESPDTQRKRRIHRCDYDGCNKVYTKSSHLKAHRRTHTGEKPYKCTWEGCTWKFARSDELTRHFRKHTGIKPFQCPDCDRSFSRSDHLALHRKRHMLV
Setting: whole hairpin DNA, median over replicate spots
The median fluorescence of `GAGGCCGACTGCGCCCAGCCTCCTGGCTGGGCGCAGTCGGCCTCACACTC` is reported as 8390 a.u.
`GAGGCCGGCCGCGCCCAGCCTCCTGGCTGGGCGCGGCCGGCCTCACACTC (5mC at 37)` gave a median fluorescence of 8550 a.u.
`GAGGCCCACCGCGCCCAGCCTCCTGGCTGGGCGCGGTGGGCCTCACACTC` gave a median fluorescence of 9050 a.u.
`GAGGCCCACCGCGCCCAGCCTCCTGGCTGGGCGCGGTGGGCCTCACACTC (5mC at 7)` has a median fluorescence of 8870 a.u.
With `GAGGCCGACCACGCTCAGCCTCCTGGCTGAGCGTGGTCGGCCTCACACTC` the median fluorescence was 9200 a.u.
`GAGGCCGACCGCCGCCAGCCTCCTGGCTGGCGGCGGTCGGCCTCACACTC (5mC at 13 31)` gave a median fluorescence of 8230 a.u.
`GAGGCCGACCGCGCCAAGCCTCCTGGCTTGGCGCGGTCGGCCTCACACTC` has a median fluorescence of 8510 a.u.
`GAGGCCGATCGCGCCCAGCCTCCTGGCTGGGCGCGATCGGCCTCACACTC` gave a median fluorescence of 8200 a.u.
`GAGGCCGCGCGCGCCCAGCCTCCTGGCTGGGCGCGCGCGGCCTCACACTC (5mC at 36)` gave a median fluorescence of 12000 a.u.
`GAGGCCGCGCACGCCCAGCCTCCTGGCTGGGCGTGCGCGGCCTCACACTC (5mC at 8)` gave a median fluorescence of 9730 a.u.
With `GAGGCCGACCATGCCCAGCCTCCTGGCTGGGCATGGTCGGCCTCACACTC` the median fluorescence was 8610 a.u.
With `GAGGCCGACCGCACCCAGCCTCCTGGCTGGGTGCGGTCGGCCTCACACTC` the median fluorescence was 8830 a.u.

A few entries again (study 4):
`GAGGCCCACCGCGCCCAGCCTCCTGGCTGGGCGCGGTGGGCCTCACACTC (5mC at 7)` has a median fluorescence of 8870 a.u.
With `GAGGCCGACCATGCCCAGCCTCCTGGCTGGGCATGGTCGGCCTCACACTC` the median fluorescence was 8610 a.u.
With `GAGGCCGACCACGCTCAGCCTCCTGGCTGAGCGTGGTCGGCCTCACACTC` the median fluorescence was 9200 a.u.
`GAGGCCCACCGCGCCCAGCCTCCTGGCTGGGCGCGGTGGGCCTCACACTC` gave a median fluorescence of 9050 a.u.
`GAGGCCGACCGCCGCCAGCCTCCTGGCTGGCGGCGGTCGGCCTCACACTC (5mC at 13 31)` gave a median fluorescence of 8230 a.u.
